Measurements pooled from the literature.
Each line is one published result; not all experiments were run side by side. ± gives the spread as reported.
MAPK14: Mitogen-activated protein kinase 14 (MAPK14, Homo sapiens, UniProt Q16539)
Chain of UniProt Q16539 (whole entry, looked up): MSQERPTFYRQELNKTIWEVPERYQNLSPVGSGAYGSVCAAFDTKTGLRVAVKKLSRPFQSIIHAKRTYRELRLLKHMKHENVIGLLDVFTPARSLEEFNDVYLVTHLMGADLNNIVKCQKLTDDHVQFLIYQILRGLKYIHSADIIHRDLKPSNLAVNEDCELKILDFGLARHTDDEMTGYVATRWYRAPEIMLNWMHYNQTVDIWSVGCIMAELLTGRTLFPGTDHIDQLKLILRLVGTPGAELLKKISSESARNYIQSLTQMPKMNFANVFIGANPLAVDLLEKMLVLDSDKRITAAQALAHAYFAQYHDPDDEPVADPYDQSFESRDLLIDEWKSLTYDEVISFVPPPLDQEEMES
sdiA: Regulatory protein SdiA (sdiA, Escherichia coli, UniProt P07026)
Chain of UniProt P07026 (whole entry, looked up): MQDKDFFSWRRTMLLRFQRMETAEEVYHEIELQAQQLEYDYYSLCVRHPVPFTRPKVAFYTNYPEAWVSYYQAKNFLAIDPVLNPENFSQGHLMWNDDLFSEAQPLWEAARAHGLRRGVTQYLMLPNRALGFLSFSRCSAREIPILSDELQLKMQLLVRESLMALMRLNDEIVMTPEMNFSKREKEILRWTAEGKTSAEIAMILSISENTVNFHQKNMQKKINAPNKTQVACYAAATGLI
lasR: Transcriptional activator protein LasR (lasR, Pseudomonas aeruginosa, UniProt P25084)
Chain of UniProt P25084 (whole entry, looked up): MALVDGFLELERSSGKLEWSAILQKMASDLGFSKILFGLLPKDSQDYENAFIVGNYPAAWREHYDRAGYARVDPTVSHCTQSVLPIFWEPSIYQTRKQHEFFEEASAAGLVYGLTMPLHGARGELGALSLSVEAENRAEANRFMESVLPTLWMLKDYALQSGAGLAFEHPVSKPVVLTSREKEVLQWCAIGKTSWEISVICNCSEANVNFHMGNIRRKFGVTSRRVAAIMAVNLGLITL
Histidine kinase AgrC: Histidine kinase AgrC (Listeria monocytogenes, UniProt A8E0G3)
PTH1R: Parathyroid hormone/parathyroid hormone-related peptide receptor (PTH1R, Homo sapiens, UniProt Q03431)
Chain of UniProt P30559 (whole entry, looked up): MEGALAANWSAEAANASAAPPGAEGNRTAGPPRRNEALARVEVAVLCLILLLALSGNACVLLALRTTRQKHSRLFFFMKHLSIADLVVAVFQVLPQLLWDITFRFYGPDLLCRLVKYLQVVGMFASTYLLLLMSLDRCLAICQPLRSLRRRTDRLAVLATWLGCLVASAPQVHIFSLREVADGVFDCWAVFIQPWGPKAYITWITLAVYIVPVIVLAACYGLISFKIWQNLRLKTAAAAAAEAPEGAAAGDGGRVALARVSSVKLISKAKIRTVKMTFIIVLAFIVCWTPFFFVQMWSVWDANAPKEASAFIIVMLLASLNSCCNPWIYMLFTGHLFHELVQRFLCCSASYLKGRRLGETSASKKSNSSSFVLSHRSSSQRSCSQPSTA
Chain of UniProt P30874 (whole entry, looked up): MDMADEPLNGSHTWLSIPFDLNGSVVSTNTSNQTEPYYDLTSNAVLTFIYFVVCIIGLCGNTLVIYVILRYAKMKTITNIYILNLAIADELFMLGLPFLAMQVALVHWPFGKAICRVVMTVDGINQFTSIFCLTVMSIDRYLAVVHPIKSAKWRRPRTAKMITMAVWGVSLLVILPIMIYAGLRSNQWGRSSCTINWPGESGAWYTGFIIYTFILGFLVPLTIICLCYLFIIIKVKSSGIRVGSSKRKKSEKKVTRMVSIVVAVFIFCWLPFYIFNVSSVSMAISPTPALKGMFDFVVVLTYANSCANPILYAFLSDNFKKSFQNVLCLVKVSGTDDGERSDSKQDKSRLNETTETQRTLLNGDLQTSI
Chain of UniProt Q9UKP6 (whole entry, unmodified, looked up): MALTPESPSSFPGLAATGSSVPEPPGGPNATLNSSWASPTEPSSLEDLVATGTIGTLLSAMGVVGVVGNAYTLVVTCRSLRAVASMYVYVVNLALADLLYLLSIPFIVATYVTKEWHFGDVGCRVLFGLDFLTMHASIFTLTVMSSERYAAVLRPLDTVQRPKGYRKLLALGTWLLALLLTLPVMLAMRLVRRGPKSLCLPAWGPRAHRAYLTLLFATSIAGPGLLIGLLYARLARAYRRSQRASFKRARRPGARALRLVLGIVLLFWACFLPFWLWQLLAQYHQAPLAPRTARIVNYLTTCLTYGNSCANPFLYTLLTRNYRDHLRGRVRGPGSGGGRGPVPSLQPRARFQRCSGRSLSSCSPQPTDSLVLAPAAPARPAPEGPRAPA
Chain of UniProt Q8BZ39 (whole entry, looked up): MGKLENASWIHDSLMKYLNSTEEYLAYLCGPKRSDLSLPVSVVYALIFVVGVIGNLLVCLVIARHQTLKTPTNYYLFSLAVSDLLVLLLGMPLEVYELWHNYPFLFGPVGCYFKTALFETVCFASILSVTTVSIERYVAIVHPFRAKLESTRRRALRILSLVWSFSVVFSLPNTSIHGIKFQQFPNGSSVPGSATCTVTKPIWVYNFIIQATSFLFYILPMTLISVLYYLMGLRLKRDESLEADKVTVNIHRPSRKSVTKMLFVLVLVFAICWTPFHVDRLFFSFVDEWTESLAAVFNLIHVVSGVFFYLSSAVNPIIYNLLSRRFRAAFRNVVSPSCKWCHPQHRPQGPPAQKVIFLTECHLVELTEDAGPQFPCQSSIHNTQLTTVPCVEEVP
Chain of UniProt P10686 (21-1215, looked up): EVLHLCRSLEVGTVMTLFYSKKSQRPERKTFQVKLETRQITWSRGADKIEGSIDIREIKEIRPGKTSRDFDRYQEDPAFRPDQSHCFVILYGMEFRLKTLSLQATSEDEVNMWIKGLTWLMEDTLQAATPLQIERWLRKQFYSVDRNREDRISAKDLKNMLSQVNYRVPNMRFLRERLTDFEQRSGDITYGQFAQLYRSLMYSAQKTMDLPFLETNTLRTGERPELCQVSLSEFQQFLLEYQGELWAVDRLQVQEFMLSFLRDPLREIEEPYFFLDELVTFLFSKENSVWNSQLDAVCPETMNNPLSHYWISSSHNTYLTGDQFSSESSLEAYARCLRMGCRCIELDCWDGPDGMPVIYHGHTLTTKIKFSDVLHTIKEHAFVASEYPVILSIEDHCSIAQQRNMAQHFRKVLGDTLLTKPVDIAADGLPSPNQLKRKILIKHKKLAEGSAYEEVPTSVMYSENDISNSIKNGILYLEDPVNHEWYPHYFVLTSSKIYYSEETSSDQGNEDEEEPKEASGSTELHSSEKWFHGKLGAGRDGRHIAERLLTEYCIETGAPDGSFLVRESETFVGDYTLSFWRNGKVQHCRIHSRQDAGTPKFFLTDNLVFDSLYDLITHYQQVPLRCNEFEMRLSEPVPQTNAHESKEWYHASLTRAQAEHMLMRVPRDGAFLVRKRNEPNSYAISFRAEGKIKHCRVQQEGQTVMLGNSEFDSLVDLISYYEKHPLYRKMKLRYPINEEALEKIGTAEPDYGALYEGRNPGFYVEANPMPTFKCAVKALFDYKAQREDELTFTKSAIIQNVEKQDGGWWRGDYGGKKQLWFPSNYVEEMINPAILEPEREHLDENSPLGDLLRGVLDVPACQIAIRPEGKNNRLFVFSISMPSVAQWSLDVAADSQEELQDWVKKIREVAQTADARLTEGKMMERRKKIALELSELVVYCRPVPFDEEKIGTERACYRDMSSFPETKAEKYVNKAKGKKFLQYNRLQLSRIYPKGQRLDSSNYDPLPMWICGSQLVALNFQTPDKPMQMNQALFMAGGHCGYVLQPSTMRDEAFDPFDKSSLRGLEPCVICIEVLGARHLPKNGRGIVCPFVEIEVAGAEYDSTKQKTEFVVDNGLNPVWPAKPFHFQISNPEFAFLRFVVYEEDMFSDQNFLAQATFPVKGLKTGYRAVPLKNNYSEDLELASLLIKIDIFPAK
Chain of UniProt P43219 (whole entry, looked up): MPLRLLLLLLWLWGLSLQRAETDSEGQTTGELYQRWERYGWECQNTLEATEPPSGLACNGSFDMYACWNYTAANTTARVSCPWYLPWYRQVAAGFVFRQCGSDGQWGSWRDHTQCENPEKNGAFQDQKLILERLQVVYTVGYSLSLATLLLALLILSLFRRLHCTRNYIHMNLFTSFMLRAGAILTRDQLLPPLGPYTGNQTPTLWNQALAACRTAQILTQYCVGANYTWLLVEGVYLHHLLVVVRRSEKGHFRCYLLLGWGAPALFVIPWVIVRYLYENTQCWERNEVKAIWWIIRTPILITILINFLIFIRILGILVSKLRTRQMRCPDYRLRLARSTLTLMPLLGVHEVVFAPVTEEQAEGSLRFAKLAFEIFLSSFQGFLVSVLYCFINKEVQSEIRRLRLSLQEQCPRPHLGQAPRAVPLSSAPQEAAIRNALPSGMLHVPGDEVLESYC
Chain of UniProt P48730 (whole entry, looked up): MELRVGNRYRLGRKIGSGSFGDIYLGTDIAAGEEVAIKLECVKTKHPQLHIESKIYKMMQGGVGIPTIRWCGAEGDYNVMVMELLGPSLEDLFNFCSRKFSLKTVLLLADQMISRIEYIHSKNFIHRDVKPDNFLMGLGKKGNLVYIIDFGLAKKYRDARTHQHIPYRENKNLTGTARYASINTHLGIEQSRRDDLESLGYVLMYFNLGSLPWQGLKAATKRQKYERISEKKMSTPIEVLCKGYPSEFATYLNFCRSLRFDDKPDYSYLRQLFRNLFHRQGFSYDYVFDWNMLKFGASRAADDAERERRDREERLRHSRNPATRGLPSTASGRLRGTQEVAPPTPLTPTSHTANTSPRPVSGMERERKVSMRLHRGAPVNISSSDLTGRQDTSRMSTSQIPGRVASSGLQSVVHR
Chain of UniProt P35372 (whole entry, looked up): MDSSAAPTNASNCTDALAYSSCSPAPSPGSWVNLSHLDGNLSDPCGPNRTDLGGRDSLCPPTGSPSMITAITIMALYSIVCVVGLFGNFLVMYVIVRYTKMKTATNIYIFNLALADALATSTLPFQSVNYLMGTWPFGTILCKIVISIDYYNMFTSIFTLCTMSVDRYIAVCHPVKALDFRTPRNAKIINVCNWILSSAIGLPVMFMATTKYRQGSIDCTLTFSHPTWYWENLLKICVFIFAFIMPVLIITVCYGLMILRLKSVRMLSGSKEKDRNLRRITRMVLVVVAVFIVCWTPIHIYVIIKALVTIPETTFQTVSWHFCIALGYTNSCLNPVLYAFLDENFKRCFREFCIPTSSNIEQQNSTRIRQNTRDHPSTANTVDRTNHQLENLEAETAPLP

Structure (SMILES)	tested on	assay	test system	setting	scale	measurement	result
O=C1NC(=O)c2c1c1cc(F)c[n+]3c1c1c2c2cc(O)ccc2[n]1[Ru-4]312([N]=C=S)[S+]3CC[S+]1CC[S+]2CC3 (stereo not shown)	MAPK14	enzyme activity		100 nM, human enzyme, added: 10 µM ATP	reference: untreated	remaining activity	111%
O=C(Cc1cccc(C(F)(F)F)c1)N[C@H]1CCOC1=O	sdiA					EC50	3.92 nM
O=C(CCc1ccc(C(F)(F)F)cc1)N[C@H]1CCOC1=O	lasR	reporter gene, agonist	ΔmexAB-oprM pump mutant			EC50	8600 nM
CC[C@H](C)[C@H](NC(=O)[C@H](CO)NC(=O)[C@H](Cc1ccc(O)cc1)NC(=O)[C@H](Cc1ccc(O)cc1)NC(=O)[C@H](CC(N)=O)NC(=O)CNC(=O)[C@H](CO)NC(=O)[C@H](Cc1ccc(O)cc1)NC(=O)[C@H](CO)NC(=O)[C@H](CO)NC(=O)[C@H](CC(N)=O)NC(=O)COCCOCCNC(=O)CN1CCN(CC(=O)O)CCN(CC(=O)O)CCN(CC(=O)O)CC1)C(=O)N[C@@H](CC(C)C)C(N)=O [copper-64 labelled]		dynamic PET	mouse, tamoxifen-induced PDAC, tumor	intravenous, 0.1 µg/mouse, 5.5 min		tumour uptake	13.5 %ID/mL
O=C1NC2(CC2)COc2ncc(F)cc2[C@H]2COCCN2c2ccn3ncc1c3n2			Sprague-Dawley rat, female, serum	oral, 2.5 mg/kg/day, end of treatment, 4-week subacute toxicity		serum hepatic lipase activity	3.6 ± 0.9 U/L
CSCC[C@@H]1NC(=O)[C@H](Cc2ccccc2)NC(=O)[C@@H](NC(=O)[C@H](C)N)CSC(=O)[C@H](C(C)C)NC(=O)[C@H](Cc2ccccc2)NC1=O	Histidine kinase AgrC					EC50	29.7 nM
O=C(Cc1cccc(Cl)c1)N[C@H]1CCOC1=O	sdiA					EC50	1.19 nM
CC(C)(C)C(=O)OCOP(=O)(OCOC(=O)C(C)(C)C)C1CCCN(O)C1=O (stereo not shown)	CAKI-1					log LC50	> -4 log M
CCCC[C@H](NC(=O)[C@H](CC(C)C)NC(=O)[C@H](CCC(N)=O)NC(=O)[C@@H](NC(=O)[C@H](CCC(=O)O)NC(=O)C(C)(C)NC(=O)[C@@H](NC(=O)C1(N)CCCC1)C(C)C)[C@@H](C)CC)C(=O)N[C@@H](Cc1c[nH]cn1)C(=O)N[C@@H](CCC(N)=O)C(=O)N[C@@H](CCCCNC(=N)N)C(=O)N[C@@H](C)C(=O)N[C@@H](CCCCNC(=O)[C@H](CCCNC(=N)N)NC(=O)CCCCCCCCCCCCCCCCC(=O)O)C(N)=O	PTH1R	cAMP, agonist, GloSensor	GP-2.3	20 min		EC50	0.38 nM
CC(C)[C@@H]1NC(=O)[C@H](Cc2ccccc2)NC(=O)[C@H](C)NC(=O)[C@H](Cc2ccccc2)NC(=O)[C@@H](NC(=O)[C@H](C)N)CSC1=O	Histidine kinase AgrC					EC50	1980 nM
CC[C@H](C)[C@@H]1NC(=O)[C@H](Cc2ccc(O)cc2)NC(=O)[C@@H](N)CSSC[C@@H](C(=O)N2CCC[C@H]2C(=O)N[C@@H](CC(C)C)C(=O)NCC(N)=O)NC(=O)[C@H](CC(N)=O)NC(=O)[C@H](CCC(N)=O)NC(=O)[C@H]([C@@H](C)CC)NC(=O)[C@H](Cc2ccc(O)cc2)NC(=O)[C@@H](N)CSSC[C@@H](C(=O)N2CCC[C@H]2C(=O)N[C@@H](CC(C)C)C(=O)NCC(N)=O)NC(=O)[C@H](CC(N)=O)NC(=O)[C@H](CCC(N)=O)NC1=O	Oxytocin receptor (OXTR, Homo sapiens, UniProt P30559)	calcium signal, agonist, fluorescence				EC50	829 nM
CC(C)[C@H](NC(=O)[C@@H]1CSSC(C)(C)[C@H](NC(=O)[C@@H](N)CC(=O)O)C(=O)N[C@@H](Cc2ccccc2)C(=O)N[C@@H](Cc2c[nH]c3ccccc23)C(=O)N[C@@H](CCCCN)C(=O)N[C@@H](Cc2ccc(O)cc2)C(=O)N1)C(=O)O	Urotensin-2 receptor (UTS2R, Homo sapiens, UniProt Q9UKP6, V152A)	IP1 accumulation, agonist, HTRF	HEK293T	1 h, 37 °C, V152A mutant, 3.54		EC50	1.58 nM
CCCCCCCCCCCCCC(=O)CC(=O)N[C@H]1CCOC1=O	sdiA					EC50	191 nM
COc1ccccc1-c1n[nH]c2nc(NC3CCN(C(=O)Cc4ccc(F)cc4F)CC3)ncc12		bead binding, competition bead pull-down, item: LMJF.32.3310	Leishmania donovani extract	10 µM	reference: vehicle	relative abundance	1.04
O=C(Cc1ccccc1)N[C@H]1CCSC1=O	sdiA					EC50	5.33 nM
Cc1cc(O)cc(C)c1C[C@H](N)C(=O)N[C@H](CCCNC(=N)N)C(=O)N[C@@H](Cc1ccccc1)C(=O)N(C)CC(=O)N(C)Cc1cc(C(F)(F)F)cc(C(F)(F)F)c1	Delta-type opioid receptor (OPRD1, Homo sapiens, UniProt P41143, W284A)	agonist				EC50	0.69 ± 0.36 nM
CCCCCCCCCCCCCCCCCC(=O)NC[C@H]1CC[C@H](C(=O)N[C@@H](CCC(=O)NCCCOCCOCCOCCCNC(=O)COCC(=O)N[C@@H](Cc2ccc(O)cc2)C(=O)NC(C)(Cc2ccccc2)C(=O)N[C@@H](CC(C)C)C(=O)N[C@@H](CCCC)C(=O)N[C@@H](CCCNC(=N)N)C(=O)N2CCC[C@H]2C(=O)N[C@@H](CCCNC(=N)NC)C(=O)N[C@@H](CC(N)=O)C(N)=O)C(=O)O)CC1 (stereo partly shown)	Neuromedin-U receptor 2 (Mus musculus, UniProt Q8BZ39)	β-arrestin recruitment, agonist				EC50	3.09 nM

Structure (SMILES)	tested on	assay	test system	setting	scale	measurement	result
CSCC[C@@H]1NC(=O)[C@H](Cc2ccccc2)NC(=O)[C@H](CS)NC(=O)[C@H](C(C)C)NC(=O)[C@H](Cc2ccccc2)NC1=O	Histidine kinase AgrC					EC50	1820 nM
CN(C)[C@H](CNC(=O)/C=C/c1cccc2ccccc12)Cc1ccc(O)cc1	Mu-type opioid receptor, with Gi1 (OPRM1, Homo sapiens, UniProt P35372)	receptor activation, agonist				EC50	14 ± 1 nM
CC(C)C[C@H](N)C(=O)N[C@@H](Cc1ccccc1)C(=O)N[C@H]1CSSC[C@@H](C(=O)N[C@@H](Cc2c[nH]c3ccccc23)C(=O)O)NC(=O)[C@H](CO)NC(=O)[C@H](CCCCN)NC(=O)[C@@H](Cc2c[nH]c3ccccc23)NC(=O)[C@H](Cc2ccccc2)NC1=O	Somatostatin receptor type 2 (SSTR2, Homo sapiens, UniProt P30874)	β-arrestin recruitment, agonist				EC50	2.58 nM
COC(=O)[C@@H](NC(=O)c1nn(Cc2ccc(F)cc2)c2cc(OCCCCNC(=N)N)ccc12)C(C)(C)C	Cannabinoid receptor 1 (CNR1, Homo sapiens, UniProt P21554)	G-protein signalling, agonist, cAMP	HEK293T cells, transfected			EC50	2.17 nM
CC(C)[C@H]1NC(=O)C[C@H]2/C=C/CCSSC[C@@H](NC1=O)C(=O)N[C@H](Cc1cccc3ccccc13)C(=O)NCC(=O)O2	Calcium/calmodulin-dependent protein kinase type II subunit delta (CAMK2D, Homo sapiens, UniProt Q13557)	enzyme activity, inhibitor		10 µM		inhibition	-0.9%
CCCC[C@H](NC(=O)[C@H](CC(C)C)NC(=O)[C@H](CCC(N)=O)NC(=O)[C@@H](NC(=O)[C@H](CCC(=O)O)NC(=O)C(C)(C)NC(=O)[C@@H](NC(=O)C1(N)CCCC1)C(C)C)[C@@H](C)CC)C(=O)N[C@@H](Cc1c[nH]cn1)C(=O)N[C@@H](CCC(N)=O)C(=O)N[C@@H](CCCCNC(=O)[C@H](CCCNC(=N)N)NC(=O)CCCCCCCCCCCCCCCCC(=O)O)C(N)=O	PTH1R	cAMP, agonist, GloSensor	GP-2.3	20 min		EC50	8.32 nM
CSCC[C@@H]1NC(=O)[C@H](Cc2ccccc2)NC(=O)[C@@H](NC(=O)[C@@H](N)C(C)C)CSC(=O)[C@H](C(C)C)NC(=O)[C@H](Cc2ccccc2)NC1=O	Histidine kinase AgrC					EC50	7.67 nM
O=C(Cc1ccc(Br)cc1)N[C@H]1CCOC1=O	sdiA					EC50	1.86 nM
CCCCCCCCCCCCCC(=O)O[C@@H]1[C@@H](C)[C@@]2(O)[C@@H](C=C(CO)C[C@]3(O)C(=O)C(C)=C[C@@H]23)[C@@H]2C(C)(C)[C@]12OC(C)=O	1-phosphatidylinositol 4,5-bisphosphate phosphodiesterase gamma-1, residues 21-1215 (Rattus norvegicus, UniProt P10686)	enzyme activity, activator	lipid vesicles	15 min preincubation, added: XY-69 substrate 0.5 µM		EC50	10000 nM
CSCC[C@H]1NC(=O)[C@H](Cc2ccccc2)NC(=O)[C@@H](NC(=O)[C@@H](N)CCCCN)CSC(=O)[C@H](C(C)C)NC(=O)[C@H](Cc2ccccc2)NC1=O	Histidine kinase AgrC					EC50	4.18 nM
CS(C)(=O)=Nc1ccc(-c2ccc(-c3nc4cc(O[C@@H]5CO[C@H]6[C@@H]5OC[C@H]6O)[nH]c4cc3F)cc2)cc1	Casein kinase I isoform delta (CSNK1D, Homo sapiens, UniProt P48730)	enzyme activity, inhibitor		10 µM		inhibition	6%
O=C(Cc1cccc([N+](=O)[O-])c1)N[C@H]1CCSC1=O	sdiA					EC50	2.11 nM
O=C(CCc1ccc(Br)cc1)N[C@H]1CCOC1=O	lasR	reporter gene, agonist	ΔmexAB-oprM pump mutant			EC50	24000 nM
O=C(COc1ccc(I)cc1)N[C@H]1CCOC1=O	sdiA					EC50	5.68 nM
CN(C)[C@H]1C[C@@]23CC[C@@]4(O2)C(=CC[C@]2(C)[C@@H](c5ccc6ccncc6c5)CC[C@H]24)C=C3[C@@H](O)[C@@H]1O	MAPK14	ATP probe labelling, inhibitor, KiNativ profiling		0.1 µM		inhibition	11.1%
O=C(COc1ccc(I)cc1)N[C@H]1CCSC1=O	sdiA					EC50	5.57 nM
CC[C@H](C)[C@H](NC(=O)[C@H](Cc1ccccc1)NC(=O)[C@H](CCC(=O)O)NC(=O)[C@H](CCCNC(=N)N)NC(=O)[C@@H](NC(=O)[C@H](C)NC(=O)[C@H](CCC(=O)O)NC(=O)[C@H](CCC(=O)O)NC(=O)[C@H](CCC(=O)O)NC(=O)[C@H](CC(C)C)NC(=O)[C@H](Cc1ccc(O)cc1)NC(=O)[C@H](CCCCN)NC(=O)[C@H](CO)NC(=O)[C@H](CC(C)C)NC(=O)[C@H](CC(=O)O)NC(=O)[C@H](CO)NC(=O)[C@@H](NC(=O)[C@H](Cc1ccccc1)NC(=O)[C@@H](NC(=O)CNC(=O)[C@H](CCC(N)=O)NC(=O)[C@@H](CO)NC(=O)[C@@H](N)Cc1c[nH]cn1)[C@@H](C)O)[C@@H](C)O)C(C)C)C(=O)N[C@@H](C)C(=O)N[C@@H](Cc1c[nH]c2ccccc12)C(=O)N[C@@H](CC(C)C)C(=O)N[C@@H](CCCCN)C(=O)N[C@@H](CC(N)=O)C(=O)NCC(=O)NCC(=O)N1CCC[C@H]1C(=O)N[C@@H](CO)C(=O)N[C@@H](Cc1ccc(O)cc1)C(=O)N[C@@H](CO)C(=O)N[C@@H](CCSC)C(=O)N[C@@H](CCC(=O)O)C(=O)N[C@@H](Cc1c[nH]cn1)C(=O)N[C@@H](Cc1ccccc1)C(=O)N[C@@H](CCCNC(=N)N)C(=O)N[C@@H](Cc1c[nH]c2ccccc12)C(=O)NCC(=O)N[C@@H](CCCCN)C(=O)N1CCC[C@H]1C(=O)N[C@H](C(N)=O)C(C)C	Gastric inhibitory polypeptide receptor (Rattus norvegicus, UniProt P43219)	cAMP, agonist, FRET				EC50	319 nM

For quick reference, copied from above:
Structure (SMILES)	tested on	assay	test system	setting	scale	measurement	result
CC(C)[C@H](NC(=O)[C@@H]1CSSC(C)(C)[C@H](NC(=O)[C@@H](N)CC(=O)O)C(=O)N[C@@H](Cc2ccccc2)C(=O)N[C@@H](Cc2c[nH]c3ccccc23)C(=O)N[C@@H](CCCCN)C(=O)N[C@@H](Cc2ccc(O)cc2)C(=O)N1)C(=O)O	Urotensin-2 receptor (UTS2R, Homo sapiens, UniProt Q9UKP6, V152A)	IP1 accumulation, agonist, HTRF	HEK293T	1 h, 37 °C, V152A mutant, 3.54		EC50	1.58 nM
CS(C)(=O)=Nc1ccc(-c2ccc(-c3nc4cc(O[C@@H]5CO[C@H]6[C@@H]5OC[C@H]6O)[nH]c4cc3F)cc2)cc1	Casein kinase I isoform delta (CSNK1D, Homo sapiens, UniProt P48730)	enzyme activity, inhibitor		10 µM		inhibition	6%
CC[C@H](C)[C@H](NC(=O)[C@H](CO)NC(=O)[C@H](Cc1ccc(O)cc1)NC(=O)[C@H](Cc1ccc(O)cc1)NC(=O)[C@H](CC(N)=O)NC(=O)CNC(=O)[C@H](CO)NC(=O)[C@H](Cc1ccc(O)cc1)NC(=O)[C@H](CO)NC(=O)[C@H](CO)NC(=O)[C@H](CC(N)=O)NC(=O)COCCOCCNC(=O)CN1CCN(CC(=O)O)CCN(CC(=O)O)CCN(CC(=O)O)CC1)C(=O)N[C@@H](CC(C)C)C(N)=O [copper-64 labelled]		dynamic PET	mouse, tamoxifen-induced PDAC, tumor	intravenous, 0.1 µg/mouse, 5.5 min		tumour uptake	13.5 %ID/mL
COC(=O)[C@@H](NC(=O)c1nn(Cc2ccc(F)cc2)c2cc(OCCCCNC(=N)N)ccc12)C(C)(C)C	Cannabinoid receptor 1 (CNR1, Homo sapiens, UniProt P21554)	G-protein signalling, agonist, cAMP	HEK293T cells, transfected			EC50	2.17 nM
O=C(Cc1cccc([N+](=O)[O-])c1)N[C@H]1CCSC1=O	sdiA					EC50	2.11 nM
